Measured values collected from several papers.
Values joined by “and” are separate records of one study, mostly repeats; a detail may differ. ± gives the spread as reported.
UniProt P04775, sequence (whole entry, unmodified, looked up): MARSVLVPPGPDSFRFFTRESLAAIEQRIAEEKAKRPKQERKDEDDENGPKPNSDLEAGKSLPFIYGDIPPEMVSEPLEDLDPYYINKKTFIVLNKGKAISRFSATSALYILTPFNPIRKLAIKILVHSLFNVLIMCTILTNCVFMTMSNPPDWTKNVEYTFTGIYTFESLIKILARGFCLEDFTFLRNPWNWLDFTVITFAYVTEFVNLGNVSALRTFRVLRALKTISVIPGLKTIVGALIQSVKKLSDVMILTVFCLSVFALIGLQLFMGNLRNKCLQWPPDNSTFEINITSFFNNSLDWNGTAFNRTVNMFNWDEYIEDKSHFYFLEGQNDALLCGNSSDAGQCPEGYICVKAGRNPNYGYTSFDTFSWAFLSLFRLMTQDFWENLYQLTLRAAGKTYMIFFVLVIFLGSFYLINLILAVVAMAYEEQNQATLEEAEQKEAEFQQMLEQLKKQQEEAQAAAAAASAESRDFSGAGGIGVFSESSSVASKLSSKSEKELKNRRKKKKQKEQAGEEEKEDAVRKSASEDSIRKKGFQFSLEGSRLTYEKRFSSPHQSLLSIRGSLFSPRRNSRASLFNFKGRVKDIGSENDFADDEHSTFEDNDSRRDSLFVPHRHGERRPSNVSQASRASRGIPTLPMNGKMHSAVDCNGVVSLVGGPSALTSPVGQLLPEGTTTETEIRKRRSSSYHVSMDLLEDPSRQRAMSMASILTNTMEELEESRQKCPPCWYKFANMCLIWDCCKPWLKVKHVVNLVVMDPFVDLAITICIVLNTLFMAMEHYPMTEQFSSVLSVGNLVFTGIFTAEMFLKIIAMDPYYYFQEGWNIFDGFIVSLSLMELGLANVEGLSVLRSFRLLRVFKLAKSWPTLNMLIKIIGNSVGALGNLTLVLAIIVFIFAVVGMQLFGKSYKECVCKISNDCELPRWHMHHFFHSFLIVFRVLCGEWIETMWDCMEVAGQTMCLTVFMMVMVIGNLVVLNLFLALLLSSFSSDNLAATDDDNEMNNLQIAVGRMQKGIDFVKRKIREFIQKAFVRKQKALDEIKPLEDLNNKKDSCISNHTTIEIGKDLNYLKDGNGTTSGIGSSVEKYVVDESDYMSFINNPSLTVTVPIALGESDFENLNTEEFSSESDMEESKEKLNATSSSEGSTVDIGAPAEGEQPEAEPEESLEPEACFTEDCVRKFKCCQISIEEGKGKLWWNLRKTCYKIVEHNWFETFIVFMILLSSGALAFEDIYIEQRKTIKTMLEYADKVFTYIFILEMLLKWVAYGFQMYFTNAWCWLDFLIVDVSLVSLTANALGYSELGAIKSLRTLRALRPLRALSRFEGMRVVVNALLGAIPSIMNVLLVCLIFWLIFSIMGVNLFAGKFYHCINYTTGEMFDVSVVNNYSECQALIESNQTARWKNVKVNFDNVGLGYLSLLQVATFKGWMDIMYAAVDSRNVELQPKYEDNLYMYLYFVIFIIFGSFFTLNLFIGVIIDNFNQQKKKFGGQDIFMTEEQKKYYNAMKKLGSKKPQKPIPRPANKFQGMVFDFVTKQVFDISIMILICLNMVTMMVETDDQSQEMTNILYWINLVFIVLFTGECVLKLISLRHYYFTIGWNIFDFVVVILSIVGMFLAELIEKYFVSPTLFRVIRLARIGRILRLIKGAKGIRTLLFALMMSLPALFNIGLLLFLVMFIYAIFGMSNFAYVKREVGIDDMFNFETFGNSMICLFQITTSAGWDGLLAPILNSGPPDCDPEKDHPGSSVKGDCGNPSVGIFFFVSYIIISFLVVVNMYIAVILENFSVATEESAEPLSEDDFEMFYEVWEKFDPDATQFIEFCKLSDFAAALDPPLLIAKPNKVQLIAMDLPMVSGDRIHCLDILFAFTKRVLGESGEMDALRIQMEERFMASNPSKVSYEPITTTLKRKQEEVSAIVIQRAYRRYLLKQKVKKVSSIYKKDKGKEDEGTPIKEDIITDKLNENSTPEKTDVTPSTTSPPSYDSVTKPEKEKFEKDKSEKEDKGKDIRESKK

With `CCOP(=O)(OCC)Oc1ccc([N+](=O)[O-])cc1` the IC10 was 155 µM (SH-SY5Y; cell viability; freely dissolved concentration).
With `COc1ccc2cc3c(N)nn(C(=O)Cc4c[nH]c5ccccc45)c3nc2c1` the inhibition was 44% (MERS-CoV spike VSV pseudovirus; pseudovirus entry; 10 µM).
`CC(C)[C@H]1C(=O)O[C@H](C(C)C)C(=O)N(C)[C@@H](C(C)C)C(=O)O[C@H](C(C)C)C(=O)N(C)[C@@H](C(C)C)C(=O)O[C@H](C(C)C)C(=O)N1C` gave a tissue concentration of 0.15 µg/kg (LC-MS/MS; CB-17 scid/scid mice, colon; intraperitoneal, 5 mg/kg, 24 h after last dose, daily dosing).
`COc1cc2ncnc(Nc3cccc(Cl)c3)c2cc1OC` gave an inhibition of 81.2% and 89.1% and 87% (Monkeypox virus; viral replication; replication-deficient; 2 µM).
`CCCCCCCCCCCCCCCCCC[N+](C)(C)C.[Br-]` has a k-1 of 5 s⁻¹ (Sodium channel protein type 4 alpha, BTX-activated (Oryctolagus cuniculus, UniProt G1SLL9); concentration not given, 0 mV).
The EC50 of `O=c1ccn([C@@H]2O[C@](F)(CO)[C@@H](O)[C@H]2O)c(=O)[nH]1` is reported as 2.03 µM (Mammarenavirus lassaense; viral replication; HeLa, clade I).
For `CC[C@H](C)[C@H](NC(=O)[C@H](CCCCN)NC(C)=O)C(=O)N[C@@H](Cc1ccccc1)C(=O)N[C@@H](CCSC)C(=O)N[C@@H](CCCCN)C(N)=O`, “blocking rate constant” read 1390 ± 96 s⁻¹ (Sodium channel protein type 2 subunit alpha, with beta-1 subunit (Scn2a, Rattus norvegicus, UniProt P04775, F1489Q/N209D); sodium current, inside-out patch clamp; Xenopus laevis oocytes; 100 µM, F1489Q mutant, voltage 0 mV).
`CCOP(=S)(OCC)Oc1nc(Cl)c(Cl)cc1Cl` gave an IC50 of 5.5 ± 0.23 µM (ReNcell VM; mitochondrial membrane potential, TMRM; 24 h).
